Measured values gathered from unrelated publications.
± marks the error that the study gave.
Sequence of UniProt P35462 (whole entry, looked up): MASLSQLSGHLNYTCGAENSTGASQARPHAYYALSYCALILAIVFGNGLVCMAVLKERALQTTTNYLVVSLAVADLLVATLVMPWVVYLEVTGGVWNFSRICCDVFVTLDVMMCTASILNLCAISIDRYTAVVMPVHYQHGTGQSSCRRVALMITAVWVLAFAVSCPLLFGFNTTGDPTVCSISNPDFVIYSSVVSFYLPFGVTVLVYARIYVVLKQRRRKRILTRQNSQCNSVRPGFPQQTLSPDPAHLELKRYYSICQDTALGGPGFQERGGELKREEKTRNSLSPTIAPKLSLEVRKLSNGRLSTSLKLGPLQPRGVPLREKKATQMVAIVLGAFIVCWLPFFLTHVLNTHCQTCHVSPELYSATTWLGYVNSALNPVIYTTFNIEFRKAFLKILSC

Clc1ccccc1-c1ccc(CNCC2(N3CCCC3)COC2)o1 has a viability of 87.3% (HEK; 30 µM, 48 h, 10% FBS; relative to: DMSO).
CCCC(CCC)C(=O)O — result for “concentration for complete inhibition”: no less than 500 µM (WA09 hESC-derived forebrain rosette tissues; rosette emergence; 5 days).
With COc1ccc2c(C[Se][C@@H]3O[C@H](CO)[C@H](O)[C@H](O)[C@H]3O)cc(=O)oc2c1 the viability was 101 ± 17.2% (THP-1 macrophages (PMA-differentiated); WST-1; 100 µM, 24 h).
For COc1ccc2[nH]c([S+]([O-])Cc3ncc(C)c(OC)c3C)nc2c1 (stereo not shown), the Emax was 9.1 fold (pooled human hepatocyte co-culture; mRNA induction, measured: CYP2B6 mRNA; 48 h; relative to: vehicle).
Under “fold enhancement of cytotoxicity”, CCC[C@H](CC)Oc1ccc(C(=O)OC)cc1NC(=O)c1nnn(-c2cc(OC)c(OCCCCCCOCCOCC(=O)N[C@H](C(=O)N3C[C@H](O)C[C@H]3C(=O)NCc3ccc(-c4scnc4C)cc3)C(C)(C)C)cc2OC)c1C is recorded as 3.3 fold (SNU-C4 cells; cell viability; 10 µM, 72 h, with: paclitaxel).
The IC50 of CC(C)C[C@@H](NC(=O)[C@H](C)NC(=O)CNC(=O)[C@@H](NC=O)C(C)C)C(=O)N[C@@H](C)C(=O)N[C@@H](C(=O)N[C@H](C(=O)N[C@@H](C(=O)N[C@@H](Cc1c[nH]c2ccccc12)C(=O)N[C@H](CC(C)C)C(=O)N[C@@H](Cc1c[nH]c2ccccc12)C(=O)N[C@H](CC(C)C)C(=O)N[C@@H](Cc1c[nH]c2ccccc12)C(=O)N[C@H](CC(C)C)C(=O)N[C@@H](Cc1c[nH]c2ccccc12)C(=O)NCCO)C(C)C)C(C)C)C(C)C is reported as 0.00614 ± 0.0005 µM (P388 (mouse); cytotoxicity, WST-1; 92 h).
With Cc1[nH]c(C)c(S(=O)(=O)Nc2ccc(C(C)(C)O)c(Cl)c2)c1C(=O)N1CCC(F)(F)C1 the IC50 was greater than 100 µM (DRD3 (Homo sapiens, UniProt P35462); β-arrestin recruitment, antagonist, PathHunter; with: dopamine EC80).
The Kd of O=C1c2ccccc2C(=O)N1CCCc1nc(-c2cccc([N+](=O)[O-])c2)no1 is reported as greater than 100 µM (CDK2 (Homo sapiens, UniProt P24941); binding).
For CC[C@]1(C)C[C@@H](OC(=O)CSc2nnc(N)[nH]2)[C@]2(C)[C@H](C)CC[C@]3(CCC(=O)[C@H]32)[C@@H](C)[C@@H]1O, the EC50 was 2.89 µM (pooled human hepatocyte co-culture; mRNA induction, measured: UGT1A1 mRNA; 48 h).
C[S+](C)[O-] gave a cytotoxic level of greater than 1 % v/v (WA09 hESC-derived forebrain rosette tissues; neural induction; concentration not given).
The viability of CC(=O)OC[C@H]1O[C@@H]([Se]Cc2ccc3ccccc3n2)[C@H](OC(C)=O)[C@@H](OC(C)=O)[C@@H]1OC(C)=O is reported as 126 ± 5.5% (THP-1 macrophages (PMA-differentiated); WST-1; 10 µM, 24 h).
CC1(CNc2nc(-c3cccs3)nc(Cl)c2-c2c(F)cc(N)cc2F)COC1 has a CC50 of greater than 20 µM (HEK293, HeLa, HepG2; resazurin; 48 h).
Brc1ccc(COc2ccccc2CNCc2cccnc2)cc1 gave a cytotoxic concentration of greater than 12.5 µM (J774.A1).
For N=C(N)NCCCCC(=O)N[C@@H](CCC(N)=O)C(=O)N[C@@H](CCc1ccccc1)C(=O)N[C@@H](CCCNC(=N)N)C(O)c1nc2ccccc2s1 (stereo partly shown), cytotoxicity read “not toxic” (Vero E6; CellTiter-Glo; 10 µM, 24 h; relative to: DMSO).
The cytotoxic concentration of Clc1ccc(COc2ccc(CNCc3ccccc3)cc2)cc1 is reported as greater than 50 µM (J774.A1).
With [N-]=[N+]=N[C@]1(CO)O[C@@H](n2ccc(N)nc2=O)[C@@H](F)[C@@H]1O the CC50 was greater than 100 µM (Vero E6; cytotoxicity; 48 (unit not given)).
Clc1ccc(COc2ccccc2CNCc2ccccc2)cc1 has a cytotoxic concentration of greater than 12.5 µM (J774.A1).
Under “fraction of dose absorbed”, CC1(C)CCC(c2ccc(Cl)cc2)=C(CN2CCN(c3ccc(C(=O)NS(=O)(=O)c4ccc(N[C@H](CCN5CCOCC5)CSc5ccccc5)c(S(=O)(=O)C(F)(F)F)c4)cc3)CC2)C1 is recorded as 1.34 ± 0.86% (Caco-2 C2BBe1 monolayers; pulse-chase lymph lipoprotein secretion; medium; 50 % of saturated solubility, 2 h, chylomicron peak interval, control).
C[C@H]1C[C@@H](N2C(=N)N[C@](C)(c3cccc(NC(=O)c4cccc(C#N)c4)c3Cl)CC2=O)CCO1: phototoxicity “negative” (Balb/c 3T3 fibroblast; up to 100 µg/mL).
For O=Cc1cc2c(cc1F)C(=O)N(C1CCC(=O)NC1=O)C2 (stereo not shown), the minimum viability was 33.9 ± 3.92% (Hep3B; CellTiter-Glo; concentration not given, 72 h).
For Cc1cc(C(=O)NC(C)(C)COc2cccc3c2C(N)=NS(=O)(=O)N3)cc(C)n1, the cytotoxicity was 1% (human peripheral blood lymphocytes; CBPI, preliminary test; 2000 µg/mL, 4 h; relative to: vehicle control).
For Cc1ncc([N+](=O)[O-])n1CCO, the CC50 was 275 µM (pigeon embryo fibroblast (PEF)).
COc1cccc(-c2n[nH]c(SCc3ccccn3)n2)c1OC: “micronucleated binucleated cells” 2.1% (CHO-WBL; 200 µg/mL, 3 h, with: rat liver S9).
For O=C1CCC(N2Cc3cc(CO)c(F)cc3C2=O)C(=O)N1 (stereo not shown), the minimum viability was 89.4 ± 2.24% (Hep3B; CellTiter-Glo; concentration not given, 72 h).
With O=C1Nc2ccccc2C1=Cc1ccccn1 the CC50 was greater than 100 µM (mouse primary peritoneal macrophages; LDH release).
The CC50 of O=C(O)c1cccc(Cc2ccc3ccn(Cn4ccc5ccc(Cc6cccc(C(=O)O)c6)cc54)c3c2)c1 is reported as 80 µM (HL2/3 and TZM-bl co-culture; 6 h, 0% serum).
COc1ccc(NC(=S)N/N=C/c2cccc3cc4ccccc4nc23)cc1 has a viable cells of 64.4 ± 1.44% (HeLa; annexin V/PI; IC50, 48 h).
For O=C(C=Cc1cc(C(=O)c2ccc(OC3CCCC3)cc2O)ccc1OCc1ccc2c(O)noc2c1)NCCOCCOCCOCCOCCOCCOCCOCCNc1cccc2c1C(=O)N(C1CCC(=O)NC1=O)C2=O (stereo not shown), the TD50 was 970 µM (TIGK gingival epithelial cells; cell proliferation, CCK-8; 48 h).
The viability of Fc1ccc2[nH]cc(CNCC3(N4CCC(F)C4)COC3)c2c1 (stereo not shown) is reported as 51.5% (HEK; 30 µM, 48 h, 10% FBS; relative to: DMSO).
The CC50 of CN1CCN(c2cnc3c(cc(C(=O)NCc4ccc(Cl)cc4)c(=O)n3CC(=O)N3CC(C)(F)C3)n2)C1=O is reported as greater than 40 µM (Vero cells; cell viability, CCK-8; 5 days).
CO[C@@H]1[C@H](OC(=O)/C=C/C=C/C=C/C=C/C(=O)O)CC[C@]2(CO2)[C@H]1[C@@]1(C)O[C@@H]1CC=C(C)C has a CC50 of 280 µM (pigeon embryo fibroblast (PEF)).
CO[C@H]1/C=C/O[C@@]2(C)Oc3c(C)c(O)c4c(c3C2=O)C2=NC3(CCN(CC(C)C)CC3)NC2=C(NC(=O)/C(C)=C\C=C\[C@H](C)[C@H](O)[C@@H](C)[C@@H](O)[C@@H](C)[C@H](OC(C)=O)[C@@H]1C)C4=O has an intracellular/extracellular ratio of 26.4 (THP-1 derived macrophages; 30 min; relative to: intracellular over extracellular).
Under “reduction of viability”, C#CCNS(=O)(=O)c1ccc(CCN(Cc2cc(Cl)ccc2OCCC)C(=O)c2ccc(O)cc2)cc1 is recorded as 16% (J774.A1; MTT; 10 µM, 4 h).
Cc1cccc2cc(CNCC3(N4CCCC4)COC3)cnc12 gave a viability of 80.5% (HEK; 30 µM, 48 h; relative to: DMSO).
Under “reduction of viability”, C#CCS(=O)(=O)c1ccc(CCN(Cc2cc(Cl)ccc2OCCC)C(=O)c2csc3ccccc23)cc1 is recorded as 14% (J774.A1; MTT; 10 µM, 4 h).
Cc1cn([C@H]2C[C@H](N=[N+]=[N-])[C@@H](CO)O2)c(=O)[nH]c1=O has a TC50 of greater than 50 µM (human PBMC; cytotoxicity, XTT; BCF01 line).
The viability of CCc1nc(N)nc(N)c1-c1ccc(Cl)cc1 is reported as 101% (uninfected human foreskin fibroblasts; MTT; 5 µM, 48 h).
COc1ccc(NC(=O)c2ccco2)cc1NC(=O)c1cccnc1 gave a Kd of greater than 100 µM (Cyclin-dependent kinase 2, with cyclin A (CDK2, Homo sapiens, UniProt P24941)).
For CO[C@H]1/C=C/O[C@@]2(C)Oc3c(C)c(O)c4c(O)c(c(/C=N/N5CCN(C)CC5)c(O)c4c3C2=O)NC(=O)/C(C)=C\C=C\[C@H](C)[C@H](O)[C@@H](C)[C@@H](O)[C@@H](C)[C@H](OC(C)=O)[C@@H]1C, the Emax was 10.2 fold (pooled human hepatocyte co-culture; mRNA induction, measured: CYP2B6 mRNA; 48 h; relative to: vehicle).
c1csc(CNc2cc[nH]n2)c1 — result for “cells with structural aberrations”: 1.5% (human peripheral blood lymphocytes (female); 1560 µg/mL, 4 h, initial, with: with S9).

Repeated from above:
With [N-]=[N+]=N[C@]1(CO)O[C@@H](n2ccc(N)nc2=O)[C@@H](F)[C@@H]1O the CC50 was greater than 100 µM (Vero E6; cytotoxicity; 48 (unit not given)).
CO[C@@H]1[C@H](OC(=O)/C=C/C=C/C=C/C=C/C(=O)O)CC[C@]2(CO2)[C@H]1[C@@]1(C)O[C@@H]1CC=C(C)C has a CC50 of 280 µM (pigeon embryo fibroblast (PEF)).
Under “fold enhancement of cytotoxicity”, CCC[C@H](CC)Oc1ccc(C(=O)OC)cc1NC(=O)c1nnn(-c2cc(OC)c(OCCCCCCOCCOCC(=O)N[C@H](C(=O)N3C[C@H](O)C[C@H]3C(=O)NCc3ccc(-c4scnc4C)cc3)C(C)(C)C)cc2OC)c1C is recorded as 3.3 fold (SNU-C4 cells; cell viability; 10 µM, 72 h, with: paclitaxel).
For O=C(C=Cc1cc(C(=O)c2ccc(OC3CCCC3)cc2O)ccc1OCc1ccc2c(O)noc2c1)NCCOCCOCCOCCOCCOCCOCCOCCNc1cccc2c1C(=O)N(C1CCC(=O)NC1=O)C2=O (stereo not shown), the TD50 was 970 µM (TIGK gingival epithelial cells; cell proliferation, CCK-8; 48 h).
For O=Cc1cc2c(cc1F)C(=O)N(C1CCC(=O)NC1=O)C2 (stereo not shown), the minimum viability was 33.9 ± 3.92% (Hep3B; CellTiter-Glo; concentration not given, 72 h).
The viability of CC(=O)OC[C@H]1O[C@@H]([Se]Cc2ccc3ccccc3n2)[C@H](OC(C)=O)[C@@H](OC(C)=O)[C@@H]1OC(C)=O is reported as 126 ± 5.5% (THP-1 macrophages (PMA-differentiated); WST-1; 10 µM, 24 h).
